Measurements of several laboratories.
Lines come from different studies, so protocols differ. ± marks the error that the study gave.
Chain of UniProt Q9Y3S1 (whole entry, looked up): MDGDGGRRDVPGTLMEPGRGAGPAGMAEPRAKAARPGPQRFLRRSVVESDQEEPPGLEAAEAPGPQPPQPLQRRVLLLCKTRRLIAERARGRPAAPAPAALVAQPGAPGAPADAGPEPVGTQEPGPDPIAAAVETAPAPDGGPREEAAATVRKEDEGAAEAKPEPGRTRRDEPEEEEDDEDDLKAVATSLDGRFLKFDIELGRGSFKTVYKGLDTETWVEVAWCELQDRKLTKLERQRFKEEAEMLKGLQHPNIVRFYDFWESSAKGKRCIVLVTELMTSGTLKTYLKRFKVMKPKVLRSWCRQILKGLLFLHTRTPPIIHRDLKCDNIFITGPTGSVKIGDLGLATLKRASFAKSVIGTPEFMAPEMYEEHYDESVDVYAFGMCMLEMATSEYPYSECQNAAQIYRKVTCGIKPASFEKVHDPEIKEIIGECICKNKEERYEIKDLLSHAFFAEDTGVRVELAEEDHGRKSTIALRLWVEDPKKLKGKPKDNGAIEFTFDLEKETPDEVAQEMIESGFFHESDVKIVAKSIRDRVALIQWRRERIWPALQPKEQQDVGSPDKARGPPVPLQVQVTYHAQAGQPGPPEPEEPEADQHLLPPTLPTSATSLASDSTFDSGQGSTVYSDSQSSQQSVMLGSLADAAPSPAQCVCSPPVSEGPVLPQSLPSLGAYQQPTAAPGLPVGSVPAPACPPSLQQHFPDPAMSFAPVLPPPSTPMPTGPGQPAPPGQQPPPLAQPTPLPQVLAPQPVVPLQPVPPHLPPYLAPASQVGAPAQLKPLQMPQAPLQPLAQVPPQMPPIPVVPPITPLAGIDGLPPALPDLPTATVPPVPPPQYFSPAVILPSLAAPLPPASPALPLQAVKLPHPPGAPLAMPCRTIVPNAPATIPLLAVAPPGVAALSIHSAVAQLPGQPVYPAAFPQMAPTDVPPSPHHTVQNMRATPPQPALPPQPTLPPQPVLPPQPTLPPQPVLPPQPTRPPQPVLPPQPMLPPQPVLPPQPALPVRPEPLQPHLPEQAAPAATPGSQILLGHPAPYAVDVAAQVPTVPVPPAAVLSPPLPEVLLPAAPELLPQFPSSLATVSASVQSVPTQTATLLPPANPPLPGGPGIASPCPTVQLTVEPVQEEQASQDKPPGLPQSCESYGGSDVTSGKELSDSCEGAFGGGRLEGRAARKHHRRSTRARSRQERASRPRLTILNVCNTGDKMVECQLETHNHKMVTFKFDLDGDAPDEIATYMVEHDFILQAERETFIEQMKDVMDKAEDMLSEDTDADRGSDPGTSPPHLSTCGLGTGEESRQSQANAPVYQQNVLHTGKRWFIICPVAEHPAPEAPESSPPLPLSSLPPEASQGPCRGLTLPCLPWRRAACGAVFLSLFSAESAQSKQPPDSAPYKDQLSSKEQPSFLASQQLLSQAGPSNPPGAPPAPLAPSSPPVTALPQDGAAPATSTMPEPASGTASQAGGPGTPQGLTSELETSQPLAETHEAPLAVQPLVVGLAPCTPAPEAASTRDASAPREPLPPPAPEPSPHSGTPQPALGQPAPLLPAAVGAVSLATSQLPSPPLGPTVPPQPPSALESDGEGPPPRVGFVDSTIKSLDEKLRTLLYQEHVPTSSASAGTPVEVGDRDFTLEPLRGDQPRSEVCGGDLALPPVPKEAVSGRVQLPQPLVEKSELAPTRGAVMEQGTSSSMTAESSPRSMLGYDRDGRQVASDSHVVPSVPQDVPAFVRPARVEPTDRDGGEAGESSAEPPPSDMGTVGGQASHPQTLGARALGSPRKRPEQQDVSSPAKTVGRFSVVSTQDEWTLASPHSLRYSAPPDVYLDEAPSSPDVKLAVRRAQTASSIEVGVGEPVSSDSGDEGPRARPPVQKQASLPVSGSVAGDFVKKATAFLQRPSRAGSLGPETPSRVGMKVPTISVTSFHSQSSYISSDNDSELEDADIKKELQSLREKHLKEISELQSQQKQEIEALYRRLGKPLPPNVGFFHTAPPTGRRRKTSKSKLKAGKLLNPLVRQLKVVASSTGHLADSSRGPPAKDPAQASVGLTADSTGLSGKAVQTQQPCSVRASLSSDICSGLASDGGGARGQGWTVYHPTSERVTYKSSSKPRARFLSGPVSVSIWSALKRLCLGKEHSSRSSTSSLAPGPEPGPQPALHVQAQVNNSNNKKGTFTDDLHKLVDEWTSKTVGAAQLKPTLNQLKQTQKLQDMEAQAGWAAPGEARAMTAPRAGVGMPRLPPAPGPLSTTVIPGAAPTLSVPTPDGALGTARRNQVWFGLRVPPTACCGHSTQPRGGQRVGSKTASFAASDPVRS
Chain of UniProt P06241 (whole entry, looked up): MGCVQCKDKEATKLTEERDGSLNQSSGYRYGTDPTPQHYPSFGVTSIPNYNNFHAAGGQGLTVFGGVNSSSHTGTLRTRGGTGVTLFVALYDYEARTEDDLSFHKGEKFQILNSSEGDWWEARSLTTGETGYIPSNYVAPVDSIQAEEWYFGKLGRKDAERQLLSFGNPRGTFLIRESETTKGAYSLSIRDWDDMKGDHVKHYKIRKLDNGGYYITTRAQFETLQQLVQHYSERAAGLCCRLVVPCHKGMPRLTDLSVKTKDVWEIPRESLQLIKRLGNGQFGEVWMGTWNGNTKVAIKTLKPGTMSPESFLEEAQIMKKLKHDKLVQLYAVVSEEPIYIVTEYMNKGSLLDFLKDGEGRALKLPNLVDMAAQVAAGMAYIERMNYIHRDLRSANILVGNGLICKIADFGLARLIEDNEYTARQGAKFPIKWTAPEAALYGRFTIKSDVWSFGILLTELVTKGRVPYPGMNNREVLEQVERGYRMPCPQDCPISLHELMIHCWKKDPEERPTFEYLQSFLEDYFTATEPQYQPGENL
Chain of UniProt O14757 (whole entry, looked up): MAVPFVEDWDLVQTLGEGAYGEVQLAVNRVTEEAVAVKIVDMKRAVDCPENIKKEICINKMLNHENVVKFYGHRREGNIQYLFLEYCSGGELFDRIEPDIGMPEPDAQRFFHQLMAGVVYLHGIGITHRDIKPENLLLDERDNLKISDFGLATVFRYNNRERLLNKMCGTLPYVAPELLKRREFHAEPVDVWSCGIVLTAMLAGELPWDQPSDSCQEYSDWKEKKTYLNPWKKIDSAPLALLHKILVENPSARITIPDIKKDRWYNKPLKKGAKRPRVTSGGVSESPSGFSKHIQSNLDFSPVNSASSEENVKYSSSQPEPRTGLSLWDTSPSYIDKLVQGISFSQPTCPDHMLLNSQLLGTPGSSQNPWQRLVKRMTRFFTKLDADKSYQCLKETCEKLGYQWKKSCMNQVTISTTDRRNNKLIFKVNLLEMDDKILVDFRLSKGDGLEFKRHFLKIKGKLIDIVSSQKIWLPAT
Chain of UniProt Q02763 (whole entry, unmodified, looked up): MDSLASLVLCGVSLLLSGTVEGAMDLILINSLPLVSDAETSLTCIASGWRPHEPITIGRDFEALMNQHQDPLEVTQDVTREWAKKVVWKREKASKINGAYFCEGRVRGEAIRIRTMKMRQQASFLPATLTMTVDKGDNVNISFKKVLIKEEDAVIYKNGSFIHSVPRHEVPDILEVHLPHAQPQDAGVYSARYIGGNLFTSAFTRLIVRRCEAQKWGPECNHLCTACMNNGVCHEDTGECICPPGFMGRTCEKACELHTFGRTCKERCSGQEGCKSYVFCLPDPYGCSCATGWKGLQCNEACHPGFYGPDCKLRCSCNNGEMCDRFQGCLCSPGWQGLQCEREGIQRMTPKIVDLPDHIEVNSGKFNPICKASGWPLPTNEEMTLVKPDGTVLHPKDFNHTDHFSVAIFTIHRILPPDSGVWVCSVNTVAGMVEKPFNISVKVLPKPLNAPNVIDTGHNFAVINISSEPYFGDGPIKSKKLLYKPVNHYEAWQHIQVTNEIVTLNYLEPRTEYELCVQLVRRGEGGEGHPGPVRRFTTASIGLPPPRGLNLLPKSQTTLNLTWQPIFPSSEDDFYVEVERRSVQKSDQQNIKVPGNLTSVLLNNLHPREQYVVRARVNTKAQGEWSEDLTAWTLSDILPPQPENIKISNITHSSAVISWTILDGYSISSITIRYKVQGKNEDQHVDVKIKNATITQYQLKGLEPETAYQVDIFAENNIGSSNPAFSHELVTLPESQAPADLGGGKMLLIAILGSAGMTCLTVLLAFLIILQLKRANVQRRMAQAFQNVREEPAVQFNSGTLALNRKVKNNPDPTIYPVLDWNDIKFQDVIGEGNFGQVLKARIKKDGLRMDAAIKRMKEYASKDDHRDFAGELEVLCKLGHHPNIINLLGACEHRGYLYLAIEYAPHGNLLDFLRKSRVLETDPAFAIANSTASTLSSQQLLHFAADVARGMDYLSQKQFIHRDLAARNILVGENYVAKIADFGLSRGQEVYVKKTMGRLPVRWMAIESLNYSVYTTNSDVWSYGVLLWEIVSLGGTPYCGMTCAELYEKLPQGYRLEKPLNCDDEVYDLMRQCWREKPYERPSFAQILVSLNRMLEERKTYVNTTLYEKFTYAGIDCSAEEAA
Chain of UniProt P30542 (whole entry, looked up): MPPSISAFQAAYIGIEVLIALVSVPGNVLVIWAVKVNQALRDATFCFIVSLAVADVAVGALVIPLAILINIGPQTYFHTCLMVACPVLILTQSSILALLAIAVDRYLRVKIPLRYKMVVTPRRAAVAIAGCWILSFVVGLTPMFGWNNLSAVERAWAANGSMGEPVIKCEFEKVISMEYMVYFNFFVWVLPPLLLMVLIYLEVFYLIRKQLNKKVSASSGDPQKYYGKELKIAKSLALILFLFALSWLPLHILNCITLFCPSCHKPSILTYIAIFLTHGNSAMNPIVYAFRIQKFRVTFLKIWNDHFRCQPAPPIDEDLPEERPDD

| SMILES | target or system | test | test system | conditions | scale | endpoint | value |
| --- | --- | --- | --- | --- | --- | --- | --- |
| CC(C)CC(C(=O)N1CC2(CC1C#N)C(=O)Nc1ccccc12)N(C)C(=O)c1cc2c(F)cc(F)c(F)c2[nH]1 (stereo not drawn) | Replicase polyprotein 1ab, main protease (rep, Porcine epidemic diarrhea virus, UniProt P0C6Y4) | protease activity, inhibitor | – | 0.32 µM | – | remaining activity | 86.2% |
| COc1ccccc1-c1n[nH]c2nc(NC3CCN(C(=O)Cc4ccc(F)cc4F)CC3)ncc12 | – | bead binding, competition bead pull-down, item: LINJ.29.0890 | Leishmania donovani extract | 10 µM | relative to: vehicle | relative abundance | 1.21 |
| CN(C)[C@H]1C[C@@]23CC[C@@]4(O2)C(=CC[C@]2(C)[C@@H](c5ccc6ccncc6c5)CC[C@H]24)C=C3[C@@H](O)[C@@H]1O | WNK2 (Homo sapiens, UniProt Q9Y3S1) | ATP probe labelling, inhibitor, KiNativ profiling | – | 1 µM | – | inhibition | 1.5% |
| N[C@H](C(=O)N1CCCC1)C1CCN(c2nccc3c(-c4ncc(Cl)cc4Cl)cccc23)CC1 | Luciferin 4-monooxygenase (Photinus pyralis, UniProt P08659) | thermal shift | – | 0.00302 µM, control protein | – | melting temperature | 51.7 °C |
| CC[C@H](C)[C@H](NC(=O)[C@H](CO)NC(=O)[C@H](Cc1ccc(O)cc1)NC(=O)[C@H](Cc1ccc(O)cc1)NC(=O)[C@H](CC(N)=O)NC(=O)CNC(=O)[C@H](CO)NC(=O)[C@H](Cc1ccc(O)cc1)NC(=O)[C@H](CO)NC(=O)[C@H](CO)NC(=O)[C@H](CC(N)=O)NC(=O)COCCOCCNC(=O)CN1CCN(CC(=O)O)CCN(CC(=O)O)CCN(CC(=O)O)CC1)C(=O)N[C@@H](CC(C)C)C(N)=O [copper-64 labelled] | – | dynamic PET | mouse, tamoxifen-induced PDAC, blood | intravenous, 0.1 µg/mouse, 1.9 min | – | tumour uptake | 23.1 %ID/mL |
| CC(C)(C)C(=O)OCOP(=O)(OCOC(=O)C(C)(C)C)C1CCCN(O)C1=O (stereo not drawn) | OVCAR-4 | – | – | – | – | log GI50 | -6.29 log M |
| Nc1ccc(/C=C/C(=O)N2CCc3c(oc4c(-c5ccc(F)cc5)cc(-c5ccc(C(=O)N6CCC(F)(F)CC6)cn5)cc34)C2)cn1 | CHEK1 (Homo sapiens, UniProt O14757) | binding, competition with immobilised ligand | – | 1 µM | – | remaining binding | 90% |
| CS(C)(=O)=Nc1ccc(-c2ccc(-c3nc4cc(O[C@@H]5CO[C@H]6[C@@H]5OC[C@H]6O)[nH]c4cc3F)cc2)cc1 | KATP channel | binding, radioligand binding | – | 10 µM | – | inhibition | 29% |
| CC(C)[C@H]1NC(=O)C[C@H]2/C=C/CCSSC[C@@H](NC1=O)C(=O)N[C@H](Cc1cccc3ccccc13)C(=O)NCC(=O)O2 | Tyrosine-protein kinase Fyn, isoform b (FYN, Homo sapiens, UniProt P06241) | – | – | 10 µM | – | inhibition | 2.3% |
| Cc1sc2c(c1C)C(c1ccc(Cl)cc1)=NC(CC(=O)OC(C)(C)C)c1nnc(C)n1-2 (stereo not drawn) | ADORA1 (Homo sapiens, UniProt P30542) | ligand displacement, radioligand | – | 1 µM | – | remaining binding | 110% |
| O=C1NC(=O)c2c1c1cc(F)c[n+]3c1c1c2c2cc(O)ccc2[n]1[Ru-4]312([N]=C=S)[S+]3CC[S+]1CC[S+]2CC3 (stereo not drawn) | TEK (Homo sapiens, UniProt Q02763, R849W) | enzyme activity | – | 100 nM, human enzyme, added: 10 µM ATP | relative to: untreated | remaining activity | 93% |
| O=C1NC2(CC2)COc2ncc(F)cc2[C@H]2COCCN2c2ccn3ncc1c3n2 | – | – | Sprague-Dawley rat, male, serum | oral, 2.5 mg/kg/day, end of recovery, 4-week subacute toxicity | – | serum total protein | 58.8 ± 1.9 g/L |

Some of these lines once more:
| SMILES | target or system | test | test system | conditions | scale | endpoint | value |
| --- | --- | --- | --- | --- | --- | --- | --- |
| CC(C)(C)C(=O)OCOP(=O)(OCOC(=O)C(C)(C)C)C1CCCN(O)C1=O (stereo not drawn) | OVCAR-4 | – | – | – | – | log GI50 | -6.29 log M |
